# Published values collected from several papers.
# A part holds a random share of what one study measured.

# Series 1 — method: protein-binding microarray; molecule type: double-stranded DNA, one strand shown; sample: in vitro; tested at: not given; reading: higher = stronger binding
# Target: Protein C-ets-1 (ETS1, Homo sapiens, UniProt P14921, residues 1-441, full length assumed)
# Notes: k-mer, scored over probes, only values ≥0.25
# Construct (chain): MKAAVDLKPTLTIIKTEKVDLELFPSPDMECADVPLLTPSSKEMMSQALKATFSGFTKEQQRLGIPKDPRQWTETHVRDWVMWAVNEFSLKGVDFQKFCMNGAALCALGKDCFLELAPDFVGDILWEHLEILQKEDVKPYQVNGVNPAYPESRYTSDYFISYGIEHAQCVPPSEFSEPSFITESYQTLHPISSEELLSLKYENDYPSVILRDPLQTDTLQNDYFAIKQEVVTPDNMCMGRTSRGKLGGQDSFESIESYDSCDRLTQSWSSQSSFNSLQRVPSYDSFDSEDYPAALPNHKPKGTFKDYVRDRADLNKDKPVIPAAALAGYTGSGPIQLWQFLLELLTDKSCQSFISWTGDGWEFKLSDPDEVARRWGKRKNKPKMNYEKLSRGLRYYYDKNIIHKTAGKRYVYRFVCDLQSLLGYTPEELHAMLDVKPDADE
Strand,E-score
ACGTCCGA,0.252
ACTACGGA,0.327
CAGGAACA,0.306
ACATCCAC,0.3
GAGAGGAA,0.326
CTTCCACC,0.278
ACGGAAAT,0.465
ATAGGATA,0.321

# Series 2 — method: protein binding microarray; molecule type: double-stranded DNA, one strand shown; sample: in vitro; tested at: not given; baseline: not given; reading: higher = stronger binding
# Target: Histone acetyltransferase KAT6A, winged helix 2, GST fusion (KAT6A, Homo sapiens, UniProt Q92794, residues 85-181)
# Notes: 8-mer, flanks averaged, mean of 2 arrays, mostly near background
# Residues (chain): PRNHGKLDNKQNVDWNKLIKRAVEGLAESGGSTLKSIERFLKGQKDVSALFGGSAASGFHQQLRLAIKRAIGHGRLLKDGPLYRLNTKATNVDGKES
Strand,E-score
GGAAAGAA,0.179
ACGTAGCC,-0.261
ACAGATTC,-0.044
GGATGTAC,-0.182
GGACCAGA,-0.0261
AGAGTTTA,0.172
TCCTAACA,-0.0122
ACTGAAGG,0.0978

# Series 3 — cell line: HEK-293T/ACE2; tested at: concentration not given; time: 16 (unit not given); baseline: vehicle
Structure (SMILES),viability
Cc1nc2n(c(=O)c1CCN1CCC(c3noc4cc(F)ccc34)CC1)CCCC2O (stereo not drawn),96.2%
COC(=O)N[C@H](C(=O)N[C@@H](Cc1ccccc1)[C@@H](O)CN(Cc1ccc(-c2ccccn2)cc1)NC(=O)[C@@H](NC(=O)OC)C(C)(C)C)C(C)(C)C,96.3%
COc1cccc2c1C(=O)c1c(O)c3c(c(O)c1C2=O)C[C@@](O)(C(C)=O)C[C@@H]3O[C@H]1C[C@H](N)[C@H](O)[C@H](C)O1,75.6%
CCC1=C(C)CN(C(=O)NCCc2ccc(S(=O)(=O)NC(=O)N[C@H]3CC[C@H](C)CC3)cc2)C1=O,106%

# Series 4 — method: RNA Bind-n-Seq; molecule type: RNA; sample: in vitro; tested at: not given; baseline: input RNA pool; reading: higher = stronger binding
# Target: RING finger protein unkempt homolog, zinc fingers 1-6, GST-SBP tag (UNK, Homo sapiens, UniProt Q9C0B0, residues 30-357)
# UniProt Q9C0B0, sequence (30-357, looked up): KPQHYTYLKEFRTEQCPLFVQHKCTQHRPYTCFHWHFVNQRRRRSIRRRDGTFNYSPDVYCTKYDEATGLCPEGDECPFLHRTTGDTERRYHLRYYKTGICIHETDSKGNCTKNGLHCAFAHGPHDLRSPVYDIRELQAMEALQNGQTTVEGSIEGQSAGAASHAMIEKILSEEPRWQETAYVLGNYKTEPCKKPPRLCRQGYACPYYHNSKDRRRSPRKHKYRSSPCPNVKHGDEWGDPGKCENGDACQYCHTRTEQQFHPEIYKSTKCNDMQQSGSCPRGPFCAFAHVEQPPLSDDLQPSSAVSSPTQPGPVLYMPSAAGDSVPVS
# Notes: RNA with constant flanks, human and mouse sites, ends assumed
# Constant ends, left off below: GGGAGUUCUACAGUCCGACGAUC … CAACAGAGGAUUGAGCAUCA
Strand,bound/input enrichment
AGAAGUACACAGGCUGCUACCCAAGUUGUUCUGAAUGUUCCUGAAACAAGAGUAACAUGUUUAGAAAGUGGACUCAGAGUAGCUUCGGAAGACUCUGGGCUCUCAACAUGCACAGUUGGA,0.131 ratio
UUGUAGUCCUAAAAAGAUUUUUUUUUUUUAAAAUAAAGUCCAUCCUUGCAUUUAGGUUUUAUAGAUCAGUCUUUUUAUUCCCACCCCUCCCCCAGUCGCAUUGAUCCCUAAUGGUGUGCU,3.7 ratio
GAAAAUGAGCAGAUACUGAAUGUAAACCCUGCAGAUCCUGAUAACUUAAGUGACUCUCUCUUUUCCGGUGAUGAAGAAAAUGCUGGGACUGAGGAAAUAAAGAAUGAAAUAAAUGGAAAU,0.261 ratio
UGCCUGGCGCAGGUGUUGCAGAAGGAUGUGGGGAAACGAUUGCAGGUUGGCCAAGAACUGAUAGACUAUUUCUCAGACAAACAGAAGUCUGCUGACCUUGAGCAUGACCAGACCAUGUUA,0.245 ratio
GGCUGUGGACCGGGCGGCACGCACGCGGUGCAGGGUAACAUGGCGGAUGCGGAAGUAAUUAUUUUGCCAAAGAAACAUAAGAAGAAAAAGGAGCGGAAGUCAUUGCCAGAAGAAGAUGUA,0.479 ratio
AUUAGGCCUCUCUGGAGGCAUUACUUCCAGAAUACCCAGGGUCUCAUUUUUGUGGUAGAUAGCAAUGAUCGUGAAAGAAUCCAGGAAGGAGCAGCUGUGCUGCAGAAAAUGCUUCUGGAA,0.396 ratio
GCCACUAUCAUCCUCCUUCUGCUUGCACAAGUUUCCUGGGCUGGACCGUUUCAACAGAGAGGCUUAUUUGACUUUAUGCUAGAAGAUGAGGCUUCUGGGAUAGGCCCAGAAGUUCCUGAU,0.202 ratio
GACGAUGAGGCCGCCAUGGGUAUUAAGAGCUGCGACCCCAAAGGCCCACUUAUGAUGUACAUUUCCAAGAUGGUGCCAACCUCUGACAAAGGCCGCUUCUAUGCCUUUGGUAGAGUGUUC,0.371 ratio

# Series 5 — effect on: enzyme activity; action: inhibitor; tested at: 20 µM
# Target: Replicase polyprotein 1ab, polymerase (rep, Severe acute respiratory syndrome coronavirus 2, UniProt P0DTD1)
SMILES,inhibition
Cc1ccc2c(-c3ccccc3)nc(=O)n(C(C)C)c2c1,-4.26%
Oc1ccc([C@@H]2Oc3ccc(O)cc3[C@@H]3CCC[C@@H]32)cc1,-5.09%
CN1[C@@H]2CC[C@H]1CC(OC(c1ccccc1)c1ccc(Cl)cc1)C2 (stereo partly drawn),2.94%
CNC(=O)c1cccc2cc(Oc3ccnc4cc(OCC5(N)CC5)c(OC)cc34)ccc12,-4.39%
CN1CCN(c2ncc(-c3cc(Cl)cc(Cl)c3Cl)c(N)n2)CC1,-6%
O=C(Nc1ccc(Cl)nc1)c1ccc(Cl)cc1,-9.78%
Cc1cnc(NC(=O)c2cc(Oc3cnc(C(=O)N(C)C)nc3)c3cc(C)oc3c2)cn1,-0.94%
C[C@]12CCC(=O)C=C1CC[C@@H]1[C@@H]2C(=O)C[C@]2(C)C(=O)CC[C@@H]12,-2.77%
CN(C)C(=O)Nc1cccc(-c2ccc(N(C)C)cc2)c1,-1.99%
C[C@@H]1COC(Nc2ccc3ncnc(Nc4ccc(OCc5nccs5)c(Cl)c4)c3c2)=N1,-2.96%
CC(=O)N(C)c1cc(-c2ccnc3c(C(=O)c4cccs4)cnn23)ccc1F,0.62%
O=C(O)Cn1c2c(c3cc(F)ccc31)CN(C(=O)c1cccc3ccccc13)CC2,-1.67%
Nc1ncnc2c1ncn2[C@@H]1O[C@H](CO)[C@@H](O)[C@H]1O,-0.34%
CN1C/C=C/CCOc2cccc(c2)-c2ccnc(n2)Nc2cccc(c2)C1,1.21%
COC(=O)/C=C/C(=O)OCCN1C(=O)CCC1=O,-7.4%
Cc1o[nH]c(=O)c1C[C@@H](N)C(=O)O (racemic),-4.01%
CO[C@H]1C[C@@H]2CC[C@@H](C)[C@@](O)(O2)C(=O)C(=O)N2CCCC[C@H]2C(=O)O[C@H]([C@H](C)C[C@@H]2CC[C@@H](O)[C@H](OC)C2)CC(=O)[C@H](C)/C=C(\C)[C@@H](O)[C@@H](OC)C(=O)[C@H](C)C[C@H](C)/C=C/C=C/C=C/1C,2.9%
N[C@H](C(=O)O)c1ccc(C(=O)O)c(C(=O)O)c1,-18.6%
NC(=O)CCCCn1ccc(NC(N)=NCC(F)(F)F)n1,-7.12%
C=CC(=O)Nc1cccc(Nc2nc(Nc3ccc(Oc4ccnc(C(=O)NC)c4)cc3)ncc2F)c1,1.08%
Cc1cc(=O)[nH]c(=S)[nH]1,28%
CC[C@@H](C(=O)[C@@H](C)[C@@H](O)[C@H](C)[C@@H]1O[C@@H]([C@@H](CC)C(=O)O)CC[C@@H]1C)[C@H]1O[C@]2(C=C[C@@H](O)[C@]3(CC[C@@](C)([C@H]4CC[C@](O)(CC)[C@H](C)O4)O3)O2)[C@H](C)C[C@@H]1C,-6.97%
CC(=O)N[C@H]1[C@H]([C@H](O)[C@H](O)CO)OC(C(=O)O)=C[C@@H]1NC(=N)N,-3.59%
C[C@@H](C1=C(CCN(C)C)Cc2ccccc21)c1ccccn1,3.68%
NCCS(=O)(=O)O,-0.86%

# Mixed results
SMILES,target,test,measurement,value
c1ccc2sc(SSc3nc4ccccc4s3)nc2c1,"Replicase polyprotein 1ab, main protease (rep, Severe acute respiratory syndrome coronavirus 2, UniProt P0DTD1)","enzyme activity, inhibitor",IC50,0.54 µM

# Repeated from above (series 5):
SMILES,inhibition
Cc1o[nH]c(=O)c1C[C@@H](N)C(=O)O (racemic),-4.01%
CO[C@H]1C[C@@H]2CC[C@@H](C)[C@@](O)(O2)C(=O)C(=O)N2CCCC[C@H]2C(=O)O[C@H]([C@H](C)C[C@@H]2CC[C@@H](O)[C@H](OC)C2)CC(=O)[C@H](C)/C=C(\C)[C@@H](O)[C@@H](OC)C(=O)[C@H](C)C[C@H](C)/C=C/C=C/C=C/1C,2.9%
N[C@H](C(=O)O)c1ccc(C(=O)O)c(C(=O)O)c1,-18.6%
NC(=O)CCCCn1ccc(NC(N)=NCC(F)(F)F)n1,-7.12%
C=CC(=O)Nc1cccc(Nc2nc(Nc3ccc(Oc4ccnc(C(=O)NC)c4)cc3)ncc2F)c1,1.08%
